{"data": "Experimental data pooled from the literature", "note": "Each numbered part is a random draw from the data of one study; scales do not carry over between parts. Substitutions count along the parent as printed."}
{"data": "Sample 1", "target": "CCND2, cyclin fold, Cln2 fusion (human)", "method": "yeast growth competition, sequencing", "matrix": "yeast", "notes": "weak parent motif", "baseline": "not given", "direction": "higher = stronger binding", "starting sequence": "SCAPER docking peptide (human); SNARRSLNFGGST; partner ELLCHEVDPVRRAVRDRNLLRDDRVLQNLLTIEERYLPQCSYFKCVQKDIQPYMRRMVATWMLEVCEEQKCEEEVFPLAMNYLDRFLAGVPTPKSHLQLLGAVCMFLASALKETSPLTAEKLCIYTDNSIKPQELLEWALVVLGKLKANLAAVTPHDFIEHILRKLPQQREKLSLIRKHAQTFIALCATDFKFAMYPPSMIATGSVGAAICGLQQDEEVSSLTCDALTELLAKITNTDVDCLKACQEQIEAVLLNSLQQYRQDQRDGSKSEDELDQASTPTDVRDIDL"}
{"Substitution": "G11S", "normalised enrichment score": 0.239}
{"Substitution": "G10D", "normalised enrichment score": 0.207}
{"Substitution": "R5Y", "normalised enrichment score": 0.15}
{"Substitution": "R5P", "normalised enrichment score": 0.148}
{"Substitution": "R4M", "normalised enrichment score": 0.123}
{"Substitution": "G10I", "normalised enrichment score": 0.225}
{"Substitution": "A3N", "normalised enrichment score": 0.415}
{"Substitution": "N8I", "normalised enrichment score": 0.726}
{"Substitution": "T13M", "normalised enrichment score": 0.25}
{"Substitution": "G10R", "normalised enrichment score": 0.129}
{"Substitution": "S1N", "normalised enrichment score": 0.359}
{"Substitution": "A3I", "normalised enrichment score": 0.319}
{"Substitution": "G10Q", "normalised enrichment score": 0.431}
{"Substitution": "S12F", "normalised enrichment score": 0.582}
{"Substitution": "N8F", "normalised enrichment score": 0.176}
{"Substitution": "A3T", "normalised enrichment score": 0.272}
{"Substitution": "L7P", "normalised enrichment score": 0.337}
{"Substitution": "N2W", "normalised enrichment score": 0.284}
{"Substitution": "S1M", "normalised enrichment score": 0.488}
{"data": "Sample 2", "target": "RNA binding protein fox-1 homolog 2, RRM domain, GST-SBP tag (RBFOX2, Homo sapiens, UniProt O43251-10, residues 100-194)", "method": "RNA Bind-n-Seq", "form": "RNA", "matrix": "in vitro", "tested at": "365 nM", "notes": "natural RNA segment, single round, ends assumed", "baseline": "no-protein control", "direction": "higher = stronger binding", "constant ends, left off below": "GGGAGUUCUACAGUCCGACGAUC … UGGAAUUCUCGGGUGCCAA", "Residues (chain)": "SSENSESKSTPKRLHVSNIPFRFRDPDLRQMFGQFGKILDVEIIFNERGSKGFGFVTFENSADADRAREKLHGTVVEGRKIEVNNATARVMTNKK"}
{"Oligonucleotide": "GAGCUGAGAGCCAGAAAUGUGGCUGUGAUUGCGAAAGAGACGGAGUUUGGGAGACCCAUGGAAGAAAACCUUCGCCAUCUCCAUUGUUUUACCCCCAGCUCAAGAUGGAC", "RBNS enrichment (R)": 0.515}
{"Oligonucleotide": "GGCCUGUGUGAGGCAGAACUGGGACCCUUGAUUCCCAGAUUGGGAGUCAGCCAAGGACACUGGGGCUGAAUGAAAUGCCCAUUCUUCAGGCAUUUCUACCAUAAUAUUGG", "RBNS enrichment (R)": 0.415}
{"Oligonucleotide": "CUUCUACUUUGCCAGUUAUUUCAGACAGCACUACCAAGAGGAGGUGGUCAGCACUUGUUAUUGGCCUAUGAACUAAAAGCAAAUCAAAGCUCAUAAAUCAAAGCUCAUCA", "RBNS enrichment (R)": 0.374}
{"Oligonucleotide": "CCCCUGGAUUCCCAGCAGCACACGGAAGUCUGACUCUCAACUCCCCCCAAAGUGCCUGACUUUAGUGAACCUAGAGGUGAUGUGAGUAAUCCGCGCUGUUCUUUGCAGCA", "RBNS enrichment (R)": 0.398}
{"Oligonucleotide": "UGCCAAGGGCCUGGAUAAAGGGGAACUACGGCAUCUUGGAGCUCACAAAUGUGAAUCAAGCAGUCCGGCAUUCUGGAAAGCCUUGGCAUGGUUCUGUAAAGCUCUUGUAC", "RBNS enrichment (R)": 0.494}
{"Oligonucleotide": "ACUGAUCUUUGAUCCUCCUGUGAAGAUGGACUUGCCUGGCCUUAGUCAUGUGGAAAUGGUGUACCCGGCUGAGAUUUUUACAGCAAUAAAGGGGACUCUCACUAGGCUAG", "RBNS enrichment (R)": 0.357}
{"Oligonucleotide": "GCCAUGCUUGCCUAUUUGCUGUAUACAUGUAAUGAAAUUGUAGAUAAAGUGUAGUGCAUUGAAACAAAUGAACAAAAAAGUAGAUACUUUUACUAUACAAGGGUGCUGGU", "RBNS enrichment (R)": 0.715}
{"Oligonucleotide": "CUUUCUUCAGGACCUGCACUUAAUGUUUGAGGCUGUCUCUCCAGUCCCUCUCAGCAGGAGGGGUAAUGGUAGAUACAGCCUCCAUACAUCUCUUUCUCCCCUUGUUUACC", "RBNS enrichment (R)": 0.192}
{"Oligonucleotide": "GGGCGCUGCCACCACAAGGCCAGCCACUGAGCAGGCAGCUCCCUUCGUCGUCCUCCUGCCCACCCGCUGACAUUAUUUUUAUAUAGCUAAAGAGGUCAACAGCACGGGCA", "RBNS enrichment (R)": 0.339}
{"Oligonucleotide": "CAACAGGGCUCACUCUGAGCUCCACAUCCGCCUCCUUCAAGCAAAGACUUAAAAAGACUGCCCUUGACUCCUUGACACUAUAUCAAGUGCUGUGUAAGAGAGACUGGUCC", "RBNS enrichment (R)": 0.355}
{"Oligonucleotide": "AGAUGUUCUAGGAUAGUUGAUGCAUGUUACUAAAUUACGUAUGCAAGUCUGUGAGUGCGUCUGAGGGGACAUCGCCAAGGACUGACUGAGACACGAUGCCGAGACCUCAA", "RBNS enrichment (R)": 11.2}
{"Oligonucleotide": "AGGAGGAAGAGGGAAGUCAAGAGCAACCUCCAAGGCCUAUGUCAGCCUCUUCUCCUUGGGUCUUGGGGUGGGUUAGAACUGGGUUCCAGUCUGGCCAGAUGGGUUGCUGG", "RBNS enrichment (R)": 0.485}
{"data": "Sample 3", "target": "BIRC6 UBC core domain (UniProt Q9NR09)", "method": "yeast two-hybrid", "matrix": "yeast", "notes": "mostly zero background", "baseline": "not given", "direction": "higher = stronger interaction", "B1": "RNF150 RING domain (UniProt Q9ULK6); chain DKETESDFDNCAVCIEGYKPNDVVRILPCRHLFHKSCVDPWLLDHRTCPMCKMNILKALGIP", "B2": "UBE4A RING domain (UniProt Q14139); chain LQQQEEETYADACDEFLDPIMSTLMCDPVVLPSSRVTVDRSTIARHLLSDQTDPFNRSPLTMDQIRPNTELKEKIQRWLAERKQQKEQLE", "B3": "TRIM10 RING domain (UniProt Q9UDY6); chain SVTSLADEVNCPICQGTLREPVTIDCGHNFCRACLTRYCEIPGPDLEESPTCPLCKEPFRPGSFRP", "B4": "RNF14 RING domain (UniProt Q9UBS8); chain IKCFNSKLFLCSICFCEKLGSECMYFLECRHVYCKACLKDYFEIQIRDGQVQCLNCPEPKCPSVATPGQVK", "B5": "TRIM52 RING domain (UniProt Q96A61); chain PMQTLQEEAVCAICLDYFKDPVSISCGHNFCRGCVTQLWSKEDEEDQNEEEDEWEEEEDEEAV", "B6": "RNF175 RING domain (UniProt Q8N4F7); chain LPTRSLSDNICAVCGQKIIVELDEEGLIENTYQLSCNHVFHEFCIRGWCIVGKKQTCPYCKEKVDLKRMIS", "B7": "RNF112 RING domain (UniProt Q9ULX5); chain QPMAPRELPTCSICLERLRDPISLDCGHDFCIRCFSTHRLPGCEPPCCPECRKICKQKRGLR", "B8": "ANKIB1 RING domain (UniProt Q9P2G1); chain LSPGDLDTSLCDICMCSISVFEDPVDMPCGHDFCRGCWESFLNLKIQEGEAHNIFCPAYDCFQLVPVDIIE", "B9": "RNF4 RING domain (UniProt P78317); chain TGLRPSGTVSCPICMDGYSEIVQNGRLIVSTECGHVFCSQCLRDSLKNANTCPTCRKKINHKRYHP", "B10": "PHF7 RING domain (UniProt Q9BWX1); chain IQHGHVGEESCILCCEDLSQQSVENIQSPCCSQAIYHRKCIQKYAHTSAKHFFKCPQCNNRKEFPQEML", "B11": "PEX2 RING domain (UniProt P28328); chain DNTLATSGKECALCGEWPTMPHTIGCEHIFCYFCAKSSFLFDVYFTCPKCGTEVHSLQPLK", "B12": "TRIM3 RING domain (UniProt O75382); chain VQPMDKQFLVCSICLDRYQCPKVLPCLHTFCERCLQNYIPAQSLTLSCPVCRQTSILPEQGV", "B13": "RNF32 RING domain (UniProt Q9H0A6); chain SLLQGDSVQPCPICKEEFELRPQVLLSCSHVFHKACLQAFEKFTNKKTCPLCRKNQYQTRVIH", "Target sequence (chain)": "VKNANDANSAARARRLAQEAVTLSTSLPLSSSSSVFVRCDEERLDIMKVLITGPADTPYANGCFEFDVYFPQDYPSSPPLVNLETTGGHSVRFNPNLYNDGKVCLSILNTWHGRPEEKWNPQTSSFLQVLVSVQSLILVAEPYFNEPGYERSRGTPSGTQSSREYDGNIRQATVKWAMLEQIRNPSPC"}
{"Sequence": "B1 (RNF150 RING domain)", "lacZ reporter activity": 0}
{"Sequence": "B2 (UBE4A RING domain)", "lacZ reporter activity": 0}
{"Sequence": "B3 (TRIM10 RING domain)", "lacZ reporter activity": 0}
{"Sequence": "B4 (RNF14 RING domain)", "lacZ reporter activity": 0}
{"Sequence": "B5 (TRIM52 RING domain)", "lacZ reporter activity": 0}
{"Sequence": "B6 (RNF175 RING domain)", "lacZ reporter activity": 0}
{"Sequence": "B7 (RNF112 RING domain)", "lacZ reporter activity": 0}
{"Sequence": "LKQVSIRENCCSLCCDEVADTQLKPCGHSDLCMDCALQLETCPLCRKEIVSRIRQI (RSPRY1 RING domain (UniProt Q96DX4))", "lacZ reporter activity": 0}
{"Sequence": "B8 (ANKIB1 RING domain)", "lacZ reporter activity": 0}
{"Sequence": "QLQDEEDDSLCRICMDAVIDCVLLECGHMVTCTKCGKRMSECPICRQYVVRAVHVF (RNF34 RING domain (UniProt Q969K3))", "lacZ reporter activity": 0}
{"Sequence": "B9 (RNF4 RING domain)", "lacZ reporter activity": 0}
{"Sequence": "B10 (PHF7 RING domain)", "lacZ reporter activity": 0}
{"Sequence": "B11 (PEX2 RING domain)", "lacZ reporter activity": 0}
{"Sequence": "B12 (TRIM3 RING domain)", "lacZ reporter activity": 0}
{"Sequence": "B13 (RNF32 RING domain)", "lacZ reporter activity": 0}
{"data": "Sample 4", "target": "Prothrombin, mature alpha-thrombin (F2, Homo sapiens, UniProt P00734)", "method": "aptamer microarray, sandwich", "form": "DNA with 2'F-ANA", "matrix": "in vitro", "tested at": "200 nM", "notes": "whole 15-mer aptamer, many near background", "with": "Cy3 exosite-II aptamer, 400 nM", "direction": "higher = stronger binding", "oligonucleotide": "GGTTGGTGTGGTTGG"}
{"Modification": "2'F-ANA at 1 7 10 11 13", "mean fluorescence intensity": "52 a.u."}
{"Modification": "2'F-ANA at 1 5 7 8 11 12 13", "mean fluorescence intensity": "77.4 a.u."}
{"Modification": "2'F-ANA at 1 2 3 4 5 6 7 9 11 15", "mean fluorescence intensity": "51.3 a.u."}
{"Modification": "2'F-ANA at 1 3 4 5 8 9 15", "mean fluorescence intensity": "67.7 a.u."}
{"Modification": "2'F-ANA at 1 2 5 7 9 11 12 13 15", "mean fluorescence intensity": "64 a.u."}
{"Modification": "2'F-ANA at 1 3 6 9 10 13 15", "mean fluorescence intensity": "69.7 a.u."}
{"Modification": "2'F-ANA at 2 3 5 6 7 9 11", "mean fluorescence intensity": "69.2 a.u."}
{"Modification": "2'F-ANA at 1 3 4 5 8 11 14", "mean fluorescence intensity": "110 a.u."}
{"Modification": "2'F-ANA at 2 4 7 9 12 13", "mean fluorescence intensity": "415 a.u."}
{"Modification": "2'F-ANA at 1 2 3 6 9 11 12 14", "mean fluorescence intensity": "73.2 a.u."}
{"Modification": "2'F-ANA at 2 3 6 9 14 15", "mean fluorescence intensity": "336 a.u."}
{"Modification": "2'F-ANA at 1 2 3 4 5 6 7 8 9 10 12 13", "mean fluorescence intensity": "59.4 a.u."}
{"Modification": "2'F-ANA at 3 5 8 11 14", "mean fluorescence intensity": "61 a.u."}
{"Modification": "2'F-ANA at 2 3 6 7 8 9 10 11 12 15", "mean fluorescence intensity": "326 a.u."}
{"Modification": "2'F-ANA at 1 2 3 4 6 7 8 10 15", "mean fluorescence intensity": "57.8 a.u."}
{"Modification": "2'F-ANA at 2 3 8 9 10 14", "mean fluorescence intensity": "314 a.u."}
{"Modification": "2'F-ANA at 2 5 7 10 11 12", "mean fluorescence intensity": "50.3 a.u."}
{"Modification": "2'F-ANA at 1 3 5 6 8 12 15", "mean fluorescence intensity": "137 a.u."}
{"note": "For quick reference, copied from above (sample 3):"}
{"Sequence": "B1 (RNF150 RING domain)", "lacZ reporter activity": 0}
{"Sequence": "B2 (UBE4A RING domain)", "lacZ reporter activity": 0}
{"Sequence": "B3 (TRIM10 RING domain)", "lacZ reporter activity": 0}
{"Sequence": "B4 (RNF14 RING domain)", "lacZ reporter activity": 0}
{"Sequence": "B5 (TRIM52 RING domain)", "lacZ reporter activity": 0}
{"Sequence": "B6 (RNF175 RING domain)", "lacZ reporter activity": 0}
